Measurements gathered from unrelated publications.
Lines come from different studies, so protocols differ. Values joined by “and” are separate records of one study, mostly repeats; a detail may differ. ± marks the error that the study gave.
SUA7 full length assumed: SUA7 full length assumed (Saccharomyces cerevisiae, UniProt P29055)
UniProt P29055, sequence (whole entry, looked up): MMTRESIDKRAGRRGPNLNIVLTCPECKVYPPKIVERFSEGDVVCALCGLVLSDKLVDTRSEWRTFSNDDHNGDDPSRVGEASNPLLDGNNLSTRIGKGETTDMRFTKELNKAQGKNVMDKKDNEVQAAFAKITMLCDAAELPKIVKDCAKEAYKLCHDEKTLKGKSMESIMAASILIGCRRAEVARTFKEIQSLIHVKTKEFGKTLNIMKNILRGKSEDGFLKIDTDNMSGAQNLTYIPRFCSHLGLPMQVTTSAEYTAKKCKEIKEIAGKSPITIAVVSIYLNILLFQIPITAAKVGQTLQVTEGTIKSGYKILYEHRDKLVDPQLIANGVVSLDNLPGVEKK
B1: human adenosylhomocysteinase; sequence looked up; chain SDKLPYKVADIGLAAWGRKALDIAENEMPGLMRMRERYSASKPLKGARIAGCLHMTVETAVLIETLVTLGAEVQWSSCNIFSTQDHAAAAIAKAGIPVYAWKGETDEEYLWCIEQTLYFKDGPLNMILDDGGDLTNLIHTKYPQLLPGIRGISEETTTGVHNLYKMMANGILKVPAINVNDSVTKSKFDNLYGCRESLIDGIKRATDVMIAGKVAVVAGYGDVGKGCAQALRGFGARVIITEIDPINALQAAMEGYEVTTMDEACQEGNIFVTTTGCIDIILGRHFEQMKDDAIVCNIGHFDVEIDVKWLNENAVEKVNIKPQVDRYRLKNGRRIILLAEGRLVNLGCAMGHPSFVMSNSFTNQVMAQIELWTHPDKYPVGVHFLPKKLDEAVAEAHLGKLNVKLTKLTEKQAQYLGMSCDGPFKPDHYRY
B2: PRPS3 (human); sequence looked up; chain PNIKIFSGSSHQDLSQKIADRLGLELGKVVTKKFSNQETCVEIDESVRGEDVYIVQSGCGEINDSLMELLIMINACKIASASRVTAVIPCFPYARQDKKDKSRSPISAKLVANMLSIAGADHIITMDLHASQIQGFFDIPVDNLYAEPTVLKWIRENIPEWKNCIIVSPDAGGAKRVTSIADQLNVDFALIHKERKKANEVDCIVLVGDVNDRVAILVDDMADTCVTICLAADKLLSAGATRVYAILTHGIFSGPAISRINTACFEAVVVTNTIPQDEKMKHCSKIRVIDISMILAEAIRRTHNGESVSYLFSHVPL

| Molecule | tested on | assay | test system | conditions | scale | endpoint | value |
| --- | --- | --- | --- | --- | --- | --- | --- |
| maraviroc |  | Western blot | mice, NSG hu-PBL, HIV-infected, somatosensory cortex | i.p., 120 mg/kg twice daily, 3 weeks post infection | baseline: HIV-infected untreated mice, decrease | protein level | 1.34 fold |
| human HADHA | PP6C (human) | co-immunoprecipitation, IP-MS | CYB5R4 knockout cells | concentration not given | baseline: CYB5R4 knockout over parental | log2 fold change | 0.02 |
| GSGAGIESNV | construct, MBP fusion, human SCRIB, PDZ 3-4 | automated holdup | peptide, purified PDZ protein | concentration not given, unit not given | baseline: biotin control resin, higher = stronger binding | binding intensity | 0.253 |
| human G3BP1 | CYB5R4 knockout human cells | PP4 interaction, 3xFLAG-PP4C IP-MS |  | concentration not given | baseline: CYB5R4 KO over parental | log2 fold change | -1.33 |
| 11-deoxycorticosterone | CYP11B2 (human) | substrate binding, stopped-flow global kinetic fitting | purified enzyme | model, linear, 4 state, CS-IF, with: equimolar adrenodoxin |  | Kd | 3530 nM |
| MTVCNASQRQAHAQATAVSL | H1819 | phage binding | peptide |  | baseline: targeting over control phage | selectivity ratio | 3.1 ± 2.7 |
| cotadutide |  | metabolomics, measured: hepatic 1-palmitoylglycerol (16:0) | ob/ob mice on AMLN diet, NASH model, liver | dose not given |  | metabolite level | 0.69 ± 0.25 scaled intensity |
| Peginesatide | UT7/EPO | tyrosine phosphorylation, LC-MS/MS phosphoproteomics, trypsin, measured: SHIP2 tyrosine 986 |  | 10 nM, 15 min, with: 10 U/mL EPO | baseline: vehicle | phosphorylation level | 36.4 fold |
| KRRRC | HUVEC | ICP-OES, measured: rhenium | peptide | 24 h | baseline: loaded | cellular uptake | 8.85% |
| POTE ankyrin domain F (human) | CYB5R4 knockout human cells | PP4 interaction, 3xFLAG-PP4C IP-MS |  | concentration not given | baseline: CYB5R4 KO over parental | log2 fold change | -0.38 |
| CTCAGGAATTCCTACAAAGTAATGTGGAGCTCAGTTCAAGTCAATCGGTCC (dsDNA; 5'-amino-C6 primer) | SUA7 full length assumed | array | double-stranded DNA, one strand shown | TFIIB alone |  | Kd | 1.45 ± 0.63 nM |
| human ME2 R70K |  | enzyme activity, NADH absorbance |  | without fumarate, with: L-malate varied |  | Hill coefficient | 1.58 ± 0.12 |
| GSGAGKETSF | construct, MBP fusion, human SCRIB, PDZ 3-4 | automated holdup | peptide, crude extract | concentration not given, corrected by standard peak, unit not given | baseline: biotin control resin, higher = stronger binding | binding intensity | 0.638 |
| Nisin | Bacillus subtilis | bacterial cytological profiling | ATCC 6633 | concentration not given |  | cell perimeter | 4.1 µm and 5.02 µm and 4.7 µm |
| YLEPIYLSF | Jurkat expressing engineered TCR | NFAT-eGFP reporter, fluorescence microscopy | peptide | concentration not given, HLA-A*01:01 on EL4 cells |  | GFP-positive cells | 0.446% |
| GAAGCGAGTACGGAGGTACCAGCTGGTCTCCGTAGTCAAGTCAATCGGTCC (dsDNA; 5'-amino-C6 primer) | SUA7 full length assumed | array | double-stranded DNA, one strand shown | TFIIB alone |  | Kd | 2.1 ± 0.43 nM |
| epoetin alfa | UT7/EPO | RT-qPCR, measured: BMP2 |  | concentration not given, 90 min, normalized to HPRT1 | baseline: vehicle | mRNA level | 5.9 fold |
| B1 (human adenosylhomocysteinase) | PP6C (human) | co-immunoprecipitation, IP-MS | CYB5R4 knockout cells | concentration not given | baseline: CYB5R4 knockout over parental | log2 fold change | 0.14 |
| durvalumab |  |  | human, plasma | intravenous, 1500 mg, cycle 1 day 1, geometric mean, with: adavosertib 200 mg once daily |  | Cmax | 327 µg/mL |
| CTOP |  | RP-HPLC | HALO RP-amide column | 25 µM, formic acid/acetonitrile, 25 min gradient |  | retention time | 5.95 min |
| human ME2 Q101T |  | enzyme activity, activator, NADH absorbance | recombinant enzyme | range over 0 to 5 mM, pH 7.4 | baseline: wild type | activation fold | 1 |
| human MSH6 | CYB5R4 knockout human cells | PP6 interaction, 3xFLAG-PP6C IP-MS |  | concentration not given | baseline: CYB5R4 KO over parental | log2 fold change | -0.4 |
| GSGAGSETSV | construct, MBP fusion, human SCRIB, PDZ 3-4 | automated holdup | peptide, crude extract | concentration not given, uncorrected, unit not given | baseline: biotin control resin, higher = stronger binding | binding intensity | 0.404 |
| B2 (PRPS3) | CYB5R4 knockout human cells | PP6 interaction, 3xFLAG-PP6C IP-MS |  | concentration not given | baseline: CYB5R4 KO over parental | log2 fold change | -2.43 |
| GSGAGIATEV | construct, MBP fusion, human SCRIB, PDZ 3-4 | automated holdup | peptide, purified PDZ protein | concentration not given, unit not given | baseline: biotin control resin, higher = stronger binding | binding intensity | 0.135 |
| colistin | Citrobacter freundii |  | clinical isolate RKI 604/16 |  |  | MIC | ≤ 0.5 µg/mL |

Repeated from above:
| Molecule | tested on | assay | test system | conditions | scale | endpoint | value |
| --- | --- | --- | --- | --- | --- | --- | --- |
| GSGAGKETSF | construct, MBP fusion, human SCRIB, PDZ 3-4 | automated holdup | peptide, crude extract | concentration not given, corrected by standard peak, unit not given | baseline: biotin control resin, higher = stronger binding | binding intensity | 0.638 |
| cotadutide |  | metabolomics, measured: hepatic 1-palmitoylglycerol (16:0) | ob/ob mice on AMLN diet, NASH model, liver | dose not given |  | metabolite level | 0.69 ± 0.25 scaled intensity |
| YLEPIYLSF | Jurkat expressing engineered TCR | NFAT-eGFP reporter, fluorescence microscopy | peptide | concentration not given, HLA-A*01:01 on EL4 cells |  | GFP-positive cells | 0.446% |
| colistin | Citrobacter freundii |  | clinical isolate RKI 604/16 |  |  | MIC | ≤ 0.5 µg/mL |
